Assay results from different studies.
Each numbered part is a random draw from the data of one study; scales do not carry over between parts. Positions count from the first letter of the parent shown.

Study 1 — technique: RNA Bind-n-Seq; form: RNA; medium: in vitro; concentration: 200 nM; setting: whole 134-nt RNA, ends assumed; with: 150 mM LiCl; relative to: input library; direction: higher = stronger binding; endpoint: log2 enrichment; all molecules: 7-deaza-guanosine replaces G
Target: Fragile X messenger ribonucleoprotein 1, C-terminal low-complexity region (Fmr1, Mus musculus, UniProt P35922)
Shared flanks, not repeated: GGGAGUUCUACAGUCCGACGAUC … UGGAAUUCUCGGGUGUCAAGG
UUCGACGAAACAAUUCGAAAGCCCAUCAGUUUGGGUUGUGGCCAUACUGUCUGCAAGAUGUGCCUGAAUAAACUCCACCGCAAGGCUUGC: 0.0522
UGUGCUACACAUCGUAUGUACCGAAUCGGGGUUUUUUUGGGUUUUUUUGGGGUUUUUUUGGGAAAGUAUUAUGUUACGCCGUUCGGAUCU: 1.27
UCAAGUCCUGUGCUACACAUCGUAUGUACCGAAUCGGUUUUUGGUUUUUGGAGGAAAGUAUUAUGUUACGCCGUUCGGAUCUGCACUUCC: -0.31
GUCCUGUGCUACACAUCGUAUGUACCGAAUCGGGUUUUUGGGAAAAAAAGGGAAAGGGAAAGUAUUAUGUUACGCCGUUCGGAUCUGCAC: -1.88
AGUCCUGUGCUACACAUCGUAUGUACCGAAUCGGGGAGGGGUUUUUGGGGAAAGGGGAAAGUAUUAUGUUACGCCGUUCGGAUCUGCACU: 0.0396
UCAUGUGGAUGAAGCAGAAAAAGAAGCUCAGAAGAAGCCAGCUGAAUCUCAAAAAAUAGAGCGUGAAGAUGCCCUGGCUUUUAAUUCAGC: -2.91
CACAGACAACACGCACCCACACAGACACAGAGGGAAGGGGUUGGGAUGGGGACAGGGUGCACAGCAGGGCGGGGUAGGGCCCCAGCCCCU: 0.904
AGUCCUGUGCUACACAUCGUAUGUACCGAAUCGGGGAGGGGAAAGGGGAAAAAGGGGAAAGUAUUAUGUUACGCCGUUCGGAUCUGCACU: 0.545

Study 2 — target: CRIPT, C-terminal peptide; technique: DHFR complementation, deep sequencing; medium: yeast; relative to: wild type; direction: higher = weaker binding; endpoint: binding free energy change
Setting: single substitutions, model-inferred values
Starting sequence: ERBIN, PDZ domain 1 (human); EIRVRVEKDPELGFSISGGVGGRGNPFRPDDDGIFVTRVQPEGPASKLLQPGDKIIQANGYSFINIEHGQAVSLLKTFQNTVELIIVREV; partner TKNYKQTSV
I66K: 0.152 kcal/mol
V87E: -0.165 kcal/mol
K76Q: 0.403 kcal/mol
T81V: -0.0467 kcal/mol
E83Y: 0.221 kcal/mol
E42V: 0.219 kcal/mol
G18H: 1.57 kcal/mol
V20D: 0.348 kcal/mol

Study 3 — technique: competition protein-binding microarray; form: double-stranded DNA, one strand shown; medium: in vitro; concentration: 2 µM; with: Cbf1 competitor, 0.05 µM; direction: higher = stronger binding; endpoint: fluorescence intensity; shared flanks, not repeated: … GTCTTGATTCGCTTGACGCTGCTG
Target: Phosphate system positive regulatory protein PHO4, full length, GST-tagged (PHO4, Saccharomyces cerevisiae, UniProt P07270, residues 1-312)
Setting: whole 60-bp probe, lowest competitor level
Residues (chain): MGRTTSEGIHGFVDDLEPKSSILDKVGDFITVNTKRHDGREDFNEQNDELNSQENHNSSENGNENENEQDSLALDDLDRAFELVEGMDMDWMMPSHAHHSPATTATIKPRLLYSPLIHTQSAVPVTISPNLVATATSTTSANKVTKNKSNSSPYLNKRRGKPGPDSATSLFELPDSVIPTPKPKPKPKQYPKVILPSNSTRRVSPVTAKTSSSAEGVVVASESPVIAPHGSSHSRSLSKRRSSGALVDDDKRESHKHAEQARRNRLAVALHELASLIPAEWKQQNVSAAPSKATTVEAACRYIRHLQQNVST
CATACCCAACCTTGGCGTGTGGGTGAAGATATTTGT: 6340 a.u.
GGGCTTCAGAAAAAAGGCGTGCGATGTGTAGATGTA: 9470 a.u.
TTTTCTTTTACCGGCCACGTGAAATGATGATAAAAA: 12700 a.u.
GCTCTTGCAGCAGTTTCCGTGGGTAGGACCAAGGTC: 3200 a.u.
TACCGATGATGTTGTCATGATGGACAGTGATGAGGG: 5320 a.u.
ATCATTACACCGCGAGTCGTGGGTACATTGTAGTTT: 8940 a.u.
AAATTACTAAGTTTTCACGTGGATTACCCCGTATGA: 14500 a.u.
GCGTATTTGCCCCAACATGTGGTAGCCAAAACTTCA: 8480 a.u.

Single results of other studies
Starting sequence: PafA, mature enzyme, eGFP fusion (Elizabethkingia meningoseptica, UniProt Q9KJX5); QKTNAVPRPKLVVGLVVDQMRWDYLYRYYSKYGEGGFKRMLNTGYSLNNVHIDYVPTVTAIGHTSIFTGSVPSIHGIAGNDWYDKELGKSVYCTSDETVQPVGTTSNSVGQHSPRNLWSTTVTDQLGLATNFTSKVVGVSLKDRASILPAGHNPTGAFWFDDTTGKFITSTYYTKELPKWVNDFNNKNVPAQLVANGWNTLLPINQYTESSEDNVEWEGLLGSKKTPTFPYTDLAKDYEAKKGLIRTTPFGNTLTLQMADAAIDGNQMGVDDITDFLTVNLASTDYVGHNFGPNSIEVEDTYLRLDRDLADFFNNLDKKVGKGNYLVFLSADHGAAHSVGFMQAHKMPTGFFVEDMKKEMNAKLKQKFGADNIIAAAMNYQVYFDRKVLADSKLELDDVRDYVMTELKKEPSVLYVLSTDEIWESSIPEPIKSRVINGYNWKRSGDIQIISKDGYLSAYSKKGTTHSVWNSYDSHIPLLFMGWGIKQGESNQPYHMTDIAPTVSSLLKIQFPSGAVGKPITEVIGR
N48G
oxyanion analog dissociation constant (tungstate, free oxyanion; microfluidic competitive inhibition; in vitro, cell-free expressed; not given, derived from inhibition constants, unchanged parent 2230 nM; lower = stronger binding): 2470 nM

Excerpt of the above (study 2):
V87E: -0.165 kcal/mol
K76Q: 0.403 kcal/mol
